# Published values collected from several papers.
# Each line is one published result; not all experiments were run side by side. Numbers after ± are the reported error.
SMILES,assay,test system,conditions,how to read,measurement,value
COCC1CN(C2CCN(c3cc(OC)c(Nc4ncc(Br)c(Nc5ccc6c(c5P(C)(C)=O)OCCO6)n4)cc3C)CC2)C1,,human,"oral, dose not given",reference: patients,grade ≥3 decreased ejection fraction,3.7%
COc1cc(-c2nc3ccccc3s2)cc(CN2Cc3cccc(n3)CN(CC(=O)O)Cc3cccc(n3)C2)c1O,"UV-vis spectrophotometric titration, measured: H4L3+/H3L2+ equilibrium",MeOH/water with NaCl,"50 µM, room temperature, NaCl 0.1 M, MeOH ≤20% v/v",,pKa1,4.57
O=S1(=O)CC2CCCCC2CS1 (centres unmarked),"phase-solubility with β-cyclodextrin, NMR",water,25.0 °C,,intrinsic aqueous solubility,1620 µM
C=C(c1ccc(C(=O)O)c(F)c1)c1cc2c(cc1C)C(C)(C)C=CC2(C)C,,"Sprague-Dawley rat, male, plasma","oral, 100 mg/kg, 3 h, sesame oil vehicle",,LDL level,18 ± 2.5 mg/dL
CCn1c(=O)n(CCO)c(=O)c2c1nc(/C=C/c1ccc(OC)c(OC)c1)n2C,,"healthy humans, plasma","oral, 40 mg, added: rifampin 600 mg/day",reference: with over without rifampin,geometric mean ratio AUCinf,0.3
C=C(c1cc(F)c(C(=O)O)c(F)c1)c1cc2c(cc1C)C(C)(C)CCC2(C)C,,"Sprague-Dawley rat, male, plasma","oral, 100 mg/kg, 1 h, sesame oil vehicle",,LDL level,27 ± 6.1 mg/dL
O=C(O[C@@H]1Cc2c(O)cc(O)cc2O[C@@H]1c1cc(O)c(O)c(O)c1)c1cc(O)c(O)c(O)c1,,human intestinal cytosol,,reference: sulfation over glucuronidation,clearance ratio,63 fold
COc1cc(NC(C)=O)c2c(c1O)-c1c(OC)c(OC)cc3c1C(C2)N(C)CC3 (centres unmarked),,rat brain homogenate,"0.5 µg/mL, 40 d, -20 °C, long-term storage",,remaining compound,110 ± 2.7%
C[Si]1(C[C@H](CN)CC(=O)O)CCCC1,neuromuscular coordination,Wistar rat male,"oral, 100 mg/kg, 3 h",,performance time,180 s
CC12CC(c3ccc(S(C)(=O)=O)cc3)C3=C4CCC(=O)C=C4CCC3C1CCC2(O)C(F)(F)C(F)(F)F (centres unmarked),,"human, plasma","intravenous infusion, 15.7 µg [14C]-labelled, 30 min infusion, microdose 1.5 to 2 h after oral 4 mg",,"AUC(0-tlast), geometric mean",2.1 ng·h/mL
COc1cc2ncnc(Oc3ccc4c(C(N)=O)c(C)oc4c3)c2cc1OC,measured: AUC0-inf,"human, severe renal impairment",oral,reference: normal renal function,decrease in exposure,~22%
Cc1ccc(OCC(=O)O)cc1,,"Sprague-Dawley rat Crl:CD(SD), male, plasma","oral, 10 mg/kg/day of parent drug, day 1, 90-day repeated dosing",,Cmax,1820 ± 494 ng/mL
Cn1c(=O)oc2ccc(-c3ccc(CC(C#N)NC(=O)C4CNCCCO4)c(F)c3)cc21 (centres unmarked),,human,"oral, 20 mg once daily, treatment-related AE, multiple ascending dose",,triglycerides increased incidence,11.1%
COc1cc2c(cc1OC)CN(CCCCn1ccc3cc(OCC[18F])ccc31)C2,,"male CD-1 mouse, blood","intravenous, 2 h",,tracer uptake,1.89 %ID/g
CC(C)[C@H](NC(=O)CNC(=O)[C@H](CCC(N)=O)NC(=O)[C@H](C)N)C(=O)O,LC-MS/MS,"human, male, plasma","intravenous, 20 mg/kg three times daily, day 1, first dose, 10 min infusion, geometric mean",,half-life,0.14 h
NCC(=O)N1CCC[C@H]1C(=O)N1C[C@H](O)C[C@H]1C(=O)O,,,"37 °C, MAH complex, ionic strength 0.15, added: Fe(III)",,log β,20.8
COc1ccc2cc(-c3ccc(-c4ccc(C)cn4)nc3)oc2c1,,aqueous HEPES buffer,"pH 7.4, zinc(II) complex",,absorption maximum,373 nm
CCOC(=O)c1[nH]c(C)c(/C=C/c2c(I)c(C)c3n2[B-](F)(F)[N+]2=C(C)C(I)=C(C)C2=C3c2cc(OC)cc(OC)c2)c1C,,dichloromethane,,,absorption maximum,606 nm
Cc1ccccc1/N=N/c1ccc(/N=N/c2c(O)ccc3ccccc23)c(C)c1,,rat whole blood,"16.0 µg/L, freeze-thaw cycle 1",,freeze-thaw stability deviation,0.7%
C[Si](C)(C[C@@H](CN)CC(=O)O)C1CC1,neuromuscular coordination,Wistar rat male,"oral, 300 mg/kg, 2 h",,performance time,180 s
CC(C)[C@H](NC(=O)CNC(=O)[C@H](CCC(N)=O)NC(=O)[C@H](C)N)C(=O)O,,"healthy volunteers, LPS endotoxaemia, plasma","intravenous, 45 mg/kg/h, 2 h infusion, geometric mean, added: LPS 2 ng/kg",,clearance,233 mL/min/kg
O=C(Nc1ccc(C(F)(F)F)cc1Cl)c1cc(Cl)ccc1O,,SCID mice CWR22Rv1 xenograft,"intraperitoneal, 25 mg/kg",,body weight,no effect
CN(CCCNC(=O)c1cccc(C(=O)O)c1)CCCNC(=O)c1cc(NC(=O)c2cc(NC(=O)c3cc(NC(=O)c4cc(NC(=O)[C@H](N)CCNC(=O)c5cc(NC(=O)c6cc(NC(=O)c7nc(NC(=O)c8nccn8C)cn7C)cn6C)cn5C)cn4C)cn3C)cn2C)cn1C,,"C57BL/6 mice, plasma","intraperitoneal, 120 nmol/animal, 1.5 h",,injected dose in plasma,23%
N=C(N)NCCC[C@@H]1NC(=O)[C@H](Cc2c[nH]c3ccccc23)NC(=O)[C@@H](CC2CCCCC2)NC(=O)[C@@H]2CCCN2C(=O)[C@@H](NC(=O)CCc2ccccc2)CCCNC1=O,two-compartment model,"C57BL/6J mice, brain","subcutaneous, 1 mg/kg",,beta rate constant,0.38 h⁻¹
O=C([O-])CN1CCN(CC(=O)[O-])CCN(CC(=O)NCC2CCC(C(=O)NC(Cc3ccc4ccccc4c3)C(=O)NCCCCC(NC(=O)NC(CCC(=O)O)C(=O)O)C(=O)O)CC2)CCN(CC(=O)[O-])CC1.[44Sc+3] (centres unmarked),transchelation stability,,"2 h, 37 °C, added: EDTA 10 mM",,intact complex,97.3 ± 0.1%
CCNC(=O)NC1CC=C(c2cc3c(Nc4cc5ncsc5cc4F)ncnc3s2)CC1 (racemic),metabolic stability,"human, liver microsomes",,,half-life,> 2 h
CCCC(CCC)NC(=O)c1ccc(OC2OC(C(=O)O)C(O)C(O)C2O)c(O)c1 (centres unmarked),,"female Sprague-Dawley rats, plasma","oral, 50 mg/kg of parent drug",reference: 50 over 20 mg/kg dose,AUC(0-last) ratio,1.27
NC(COc1ccccc1C(F)(F)F)c1ccccc1 (centres unmarked),,"male Sprague-Dawley rat, serum","intravenous, 5 mg/kg",,clearance,153 mL/min/kg
Cc1[nH]nc2c1N=C(c1ccccc1Cl)c1cnc(N(CCO)CCO)cc1N2,,"human, feces and urine","oral, 10 mg",reference: dose,excretion in feces and urine,2.91%
OCc1cn(Cc2ccc(-c3noc(-c4ccc(OCC[18F])c(C(F)(F)F)c4)n3)cc2)nn1,,"rat, heart","intravenous, 30 min",,tracer uptake,1.19 %ID/g
CN1CCC[C@]1(C)/C=C/S(=O)(=O)NC(=O)Nc1c2c(cc3c1CCC3)CCC2,,"human, plasma","oral, 50 mg, single dose",,Tmax,1 h
O=c1nc(NO)ccn1[C@@H]1O[C@H](CO)[C@@H](O)[C@H]1O,"RT-PCR, measured: CYP2D1","normal rat, liver","oral, 80 mg/kg twice daily, 5 days",reference: untreated rats,mRNA level,< 0.1 fold

# Excerpt of the above:
SMILES,assay,test system,conditions,how to read,measurement,value
O=C(O[C@@H]1Cc2c(O)cc(O)cc2O[C@@H]1c1cc(O)c(O)c(O)c1)c1cc(O)c(O)c(O)c1,,human intestinal cytosol,,reference: sulfation over glucuronidation,clearance ratio,63 fold
COc1cc(NC(C)=O)c2c(c1O)-c1c(OC)c(OC)cc3c1C(C2)N(C)CC3 (centres unmarked),,rat brain homogenate,"0.5 µg/mL, 40 d, -20 °C, long-term storage",,remaining compound,110 ± 2.7%
C[Si]1(C[C@H](CN)CC(=O)O)CCCC1,neuromuscular coordination,Wistar rat male,"oral, 100 mg/kg, 3 h",,performance time,180 s
CC12CC(c3ccc(S(C)(=O)=O)cc3)C3=C4CCC(=O)C=C4CCC3C1CCC2(O)C(F)(F)C(F)(F)F (centres unmarked),,"human, plasma","intravenous infusion, 15.7 µg [14C]-labelled, 30 min infusion, microdose 1.5 to 2 h after oral 4 mg",,"AUC(0-tlast), geometric mean",2.1 ng·h/mL
COc1cc2ncnc(Oc3ccc4c(C(N)=O)c(C)oc4c3)c2cc1OC,measured: AUC0-inf,"human, severe renal impairment",oral,reference: normal renal function,decrease in exposure,~22%
